Results pooled from the literature.
Organism: Pseudomonas aeruginosa

COc1ccc2ccc(O)c(/C=N/[C@H]3CCCC[C@H]3/N=C/c3cc(F)ccc3O)c2c1 has an MIC of > 40 µM (microbial growth, broth dilution).
The MIC of CC1(C)[C@H](NC(=O)/C(=N\OCc2cc(=O)c(O)cn2O)c2csc(N)n2)C(=O)N1OS(=O)(=O)O is reported as 0.5 µg/mL (microbial growth, agar dilution; PAO1).
For CCCCCCCCn1cc[n+](CCCCCCCCOc2cc(OCCCCCCCC[n+]3ccn(CCCCCCCC)c3)cc(OCCCCCCCC[n+]3ccn(CCCCCCCC)c3)c2)c1.[Br-].[Br-].[Br-], the MIC was 8 µM (PAO1).
CC[C@H]1OC(=O)[C@H](C)[C@@H](O[C@H]2C[C@@](C)(OC)[C@@H](O)[C@H](C)O2)[C@H](C)[C@@H](O[C@@H]2O[C@H](C)C[C@H](N(C)C)[C@H]2O)[C@](C)(O)C[C@@H](C)C(=O)[C@H](C)[C@@H](O)[C@]1(C)O gave an MIC of 8 µg/mL (microbial growth, broth dilution).
For CC1(C)[C@H](NC(=O)/C(=N\OCc2c(Cl)cccc2Cl)c2nsc(N)n2)C(=O)N1OS(=O)(=O)O, the MIC was > 64 µg/mL (agar dilution; ATCC 27853).
COc1cc(C(=O)Nc2ccc(C(=O)O)c(O)c2OC)ccc1NC(=O)c1ccc(NC(=O)[C@H](Cc2c[nH]nn2)NC(=O)c2ccc(NC(=O)/C(C)=C/c3ccc(O)cc3)cc2)cc1 gave an MIC of 16 µg/mL (broth microdilution; ciprofloxacin-sensitive).
The MIC of CCCCCCCCCC(=O)Oc1c(C)c(OC)c2c(c1C)OC(=O)C(CCCCCCCC)C2(O)C=Cc1ccccc1 (stereo not drawn) is reported as 5000 µg/mL (microbial growth, broth dilution; ATCC27853).
N=C(N)NCCC[C@@H]1NC(=O)[C@@H](CCCNC(=N)N)NC(=O)[C@H](CCCNC(=N)N)NC(=O)[C@@H](C(c2ccccc2)c2ccccc2)NC(=O)[C@@H](C(c2ccccc2)c2ccccc2)NC(=O)[C@@H](C(c2ccccc2)c2ccccc2)NC(=O)[C@@H](CCCNC(=N)N)NC1=O gave an MIC of 16 µg/mL (ATCC 27853).
CN[C@H](CC(C)C)C(=O)N[C@H]1C(=O)N[C@@H](CC(N)=O)C(=O)N[C@H]2C(=O)N[C@H]3C(=O)N[C@H](C(=O)N[C@H](C(=O)N[C@@H](CCCNC(=N)N)C(N)=O)c4cc(O)cc(O)c4-c4cc3ccc4O)[C@H](O)c3ccc(c(Cl)c3)Oc3cc2cc(c3O[C@@H]2O[C@H](CO)[C@@H](O)[C@H](O)[C@H]2O[C@H]2C[C@](C)(NCc3ccc(OCc4cn(CC(=O)N[C@H](C(=O)N[C@@H](CCN)C(=O)N[C@H]5CCNC(=O)[C@H]([C@@H](C)O)NC(=O)[C@H](CCN)NC(=O)[C@H](CCN)NC(=O)[C@H](CC(C)C)NC(=O)[C@@H](CC(C)C)NC(=O)[C@H](CCN)NC5=O)[C@@H](C)O)nn4)c(OC)c3)[C@H](O)[C@H](C)O2)Oc2ccc(cc2Cl)[C@H]1O gave an MIC of 32 µg/mL (broth microdilution; ATCC 10145, cation-adjusted Mueller-Hinton broth; 18 to 20 h, 37 °C, 0.002% polysorbate 80).
The MIC of CC[C@H]1OC(=O)[C@H](C)[C@@H](O[C@H]2C[C@@](C)(OC)[C@@H](O)[C@H](C)O2)[C@H](C)[C@@H](O[C@@H]2O[C@H](C)C[C@H](N(C)C)[C@H]2O)[C@](C)(O)C[C@@H](C)CN(C)[C@H](C)[C@@H](O)[C@]1(C)O is reported as 16 µg/mL (broth microdilution; phenazine non-producing).
For CC(C)C[C@@H]1NC(=O)[C@@H](CC(C)C)NC(=O)[C@H](CCN)NC(=O)[C@@H](NC(=O)[C@H](CCN)NC(=O)[C@@H](N)[C@@H](C)O)CCNC(=O)[C@H]([C@@H](C)O)NC(=O)[C@H](CCN)NC(=O)[C@H](CCN)NC1=O, the MIC was > 138 µM (broth microdilution; ATCC 27736, cation-adjusted Mueller-Hinton broth).
CC[C@H]1OC(=O)[C@H](C)[C@@H](OC(=O)c2ccc(N)cc2)[C@H](C)[C@@H](O[C@@H]2O[C@H](C)C[C@H](N(C)C)[C@H]2O)[C@](C)(OC)C[C@@H](C)C(=O)[C@H](C)[C@@H](O)[C@]1(C)O has an MIC of > 32 µg/mL (microbial growth; ATCC27853).
The MIC of CCOc1c(NC(=O)c2ccc(NC(=O)c3ccc(NC(=O)[C@H](Cc4c[nH]nn4)NC(=O)c4ccc(NC(=O)/C(C)=C/c5ccc(O)cc5)cc4)cc3)c(OCC)c2O)ccc(C(=O)O)c1O is reported as 0.5 µg/mL (broth microdilution; ciprofloxacin-sensitive).
COC(=O)CNC(=O)c1ccc(NC(=O)c2[nH]c(C)c(Cl)c2Cl)c(N2CCN(C(=O)OC(C)(C)C)CC2)c1 has an MIC of > 32 µg/mL (microbial growth, broth dilution; ATCC27853).
With C=CCO/N=C(\C(=O)N[C@@H]1C(=O)N(S(=O)(=O)O)[C@H]1C)c1csc(N)n1 the MIC was 64 µg/mL (microbial growth, agar dilution; PAO1).
For CCCCCCn1cc[n+](CCCCCCCCCCOc2cc(OCCCCCCCCCC[n+]3ccn(CCCCCC)c3)cc(OCCCCCCCCCC[n+]3ccn(CCCCCC)c3)c2)c1.[Br-].[Br-].[Br-], the MIC was 16 µM (PAO1).
The MIC of CC[C@H]1OC(=O)[C@H](C)[C@@H](OC(=O)Cc2ccccc2Cl)[C@H](C)[C@@H](O[C@@H]2O[C@H](C)C[C@H](N(C)C)[C@H]2O)[C@](C)(OC)C[C@@H](C)C(=O)[C@H](C)[C@@H](O)[C@]1(C)O is reported as > 32 µg/mL (PAO397, five efflux pumps deleted).
For CC[C@H](C)[C@H](NC(=O)[C@@H](CCCNC(=N)N)NC(=O)[C@H](CCCNC(=N)N)NC(=O)[C@@H]1CCCN1C(=O)[C@@H]1CCCN1C(=O)[C@H](CCCCN)NC(=O)[C@@H]1CCCN1C(=O)[C@H](CCCNC(=N)N)NC(=O)[C@@H]1CCCN1C(=O)[C@H](CC(C)C)NC(=O)[C@H](Cc1ccc(O)cc1)NC(=O)[C@@H]1CCCN1C(=O)[C@@H]1CCCN1C(=O)[C@H](CCCCN)NC(=O)[C@H](CC(=O)O)NC(=O)[C@@H](N)C(C)C)C(=O)N[C@@H](Cc1ccc(O)cc1)C(=O)N[C@@H](CC(N)=O)C(=O)N[C@H](CCCNC(=N)N)C(N)=O, the MIC was 64 µg/mL (broth microdilution; DSM 1117; 18 h, 37 °C, 25% MHB2).
With COc1c(NC(=O)c2ccc(NC(=O)c3ccc(NC(=O)[C@H](Cc4c[nH]nn4)NC(=O)c4ccc(NC(=O)/C(C)=C/c5ccc(O)cc5)cc4)cc3)cc2)ccc(C(=O)O)c1O the MIC was 32 µg/mL (broth microdilution; ciprofloxacin-sensitive).
With COc1ccc2ccc(O)c(/C=N/[C@H]3CCCC[C@H]3/N=C/c3cccc(OC)c3O)c2c1 the MIC was > 40 µM (microbial growth, broth dilution).
For CCCCCCCC(=O)Oc1c(C)c(OC)c2c(/C=C/c3ccccc3)c(CCCCCC)c(=O)oc2c1C, the MIC was 5000 µg/mL (microbial growth, broth dilution; ATCC27853).
For CC[C@H]1OC(=O)[C@H](C)[C@@H](OC(=O)Cc2ccc3c(c2)OCO3)[C@H](C)[C@@H](O[C@@H]2O[C@H](C)C[C@H](N(C)C)[C@H]2O)[C@](C)(OC)C[C@@H](C)C(=O)[C@H](C)[C@@H](O)[C@]1(C)O, the MIC was > 64 µM (DSM 50071; compound alone).
For CC1(C)C(NC(=O)C(=NOCC(=O)N2CC3CCCC3C2C(=O)O)c2csc(N)n2)C(=O)N1OS(=O)(=O)O (stereo not drawn), the MIC was 64 µg/mL (agar dilution; PAO1).
With CCCCCCC#Cc1cncc(-c2nnc(SCc3cc([N+](=O)[O-])cc([N+](=O)[O-])c3)n2C)c1 the MIC was > 64 µg/mL (microbial growth, broth dilution; DSM1128).

Excerpt of the above:
COC(=O)CNC(=O)c1ccc(NC(=O)c2[nH]c(C)c(Cl)c2Cl)c(N2CCN(C(=O)OC(C)(C)C)CC2)c1 has an MIC of > 32 µg/mL (microbial growth, broth dilution; ATCC27853).
N=C(N)NCCC[C@@H]1NC(=O)[C@@H](CCCNC(=N)N)NC(=O)[C@H](CCCNC(=N)N)NC(=O)[C@@H](C(c2ccccc2)c2ccccc2)NC(=O)[C@@H](C(c2ccccc2)c2ccccc2)NC(=O)[C@@H](C(c2ccccc2)c2ccccc2)NC(=O)[C@@H](CCCNC(=N)N)NC1=O gave an MIC of 16 µg/mL (ATCC 27853).
